Published values pooled from the literature.
Numbered parts are unrelated; each lists some results of a single study.

Study 1
Target: Sal-like protein 4, full length isoform A (SALL4, Homo sapiens, UniProt Q9UJQ4, residues 1-1053)
UniProt Q9UJQ4, sequence (whole entry, looked up): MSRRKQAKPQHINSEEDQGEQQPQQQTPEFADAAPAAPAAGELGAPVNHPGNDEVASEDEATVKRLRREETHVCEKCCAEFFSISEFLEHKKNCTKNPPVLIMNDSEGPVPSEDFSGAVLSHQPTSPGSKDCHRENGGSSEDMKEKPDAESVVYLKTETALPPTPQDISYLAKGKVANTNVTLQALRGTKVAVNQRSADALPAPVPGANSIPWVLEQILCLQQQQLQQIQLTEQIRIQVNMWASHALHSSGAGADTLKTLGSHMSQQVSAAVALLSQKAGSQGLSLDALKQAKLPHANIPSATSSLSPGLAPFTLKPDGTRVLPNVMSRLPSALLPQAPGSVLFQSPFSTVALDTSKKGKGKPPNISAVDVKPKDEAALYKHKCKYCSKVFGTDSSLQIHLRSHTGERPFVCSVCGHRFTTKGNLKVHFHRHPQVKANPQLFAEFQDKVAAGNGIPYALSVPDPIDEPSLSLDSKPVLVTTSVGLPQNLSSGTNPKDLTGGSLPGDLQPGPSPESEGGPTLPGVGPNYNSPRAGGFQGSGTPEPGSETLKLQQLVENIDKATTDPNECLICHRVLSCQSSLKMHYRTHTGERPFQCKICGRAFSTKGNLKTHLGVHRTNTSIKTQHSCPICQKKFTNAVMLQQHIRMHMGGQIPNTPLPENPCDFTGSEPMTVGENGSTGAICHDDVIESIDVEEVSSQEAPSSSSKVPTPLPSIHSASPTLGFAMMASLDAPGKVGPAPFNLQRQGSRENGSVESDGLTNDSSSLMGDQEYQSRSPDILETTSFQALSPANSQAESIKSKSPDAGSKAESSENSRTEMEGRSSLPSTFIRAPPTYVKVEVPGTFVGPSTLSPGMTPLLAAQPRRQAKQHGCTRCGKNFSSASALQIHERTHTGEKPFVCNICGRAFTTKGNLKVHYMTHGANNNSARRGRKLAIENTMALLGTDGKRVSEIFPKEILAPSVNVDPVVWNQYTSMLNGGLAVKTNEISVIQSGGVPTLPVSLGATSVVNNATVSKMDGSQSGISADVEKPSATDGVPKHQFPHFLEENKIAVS
Method: universal PBM
Molecule type: double-stranded DNA, one strand shown
Sample: in vitro
Concentration: 600 nM
Setting: 8-mer, flanks averaged, mean of replicates
Direction: higher = stronger binding
Strand	E-score
AAGGCGCA	-0.228
CCCGTCGG	-0.372
AAAAACAC	0.0964
CTGATGGC	-0.0691
GCGTCTGA	-0.202
AAGTGTGT	0.14
AAGACATC	-0.028
ATTTAATG	0.307
CGGGTAGA	-0.106
AACTCGAG	-0.0544
CTACAACA	0.0756
AGCGTTAG	-0.0722
GAAGACTC	-0.00898
CTAGACTA	0.0677
AATCGCCC	-0.176
CCCCGTAC	-0.35
TCCAGCCA	-0.313
CACGTCGG	-0.301
AAATACGT	0.162
CTACGCCA	-0.148
GGCCCTCA	-0.344
GAGGTCCC	-0.328
GAAACCGA	-0.153
AAGGCGTC	-0.145
CCGAGCCA	-0.24

Study 2
Target: RING finger protein unkempt homolog, zinc fingers 1-6, GST-SBP tag (UNK, Homo sapiens, UniProt Q9C0B0, residues 30-357)
UniProt Q9C0B0, sequence (30-357, looked up): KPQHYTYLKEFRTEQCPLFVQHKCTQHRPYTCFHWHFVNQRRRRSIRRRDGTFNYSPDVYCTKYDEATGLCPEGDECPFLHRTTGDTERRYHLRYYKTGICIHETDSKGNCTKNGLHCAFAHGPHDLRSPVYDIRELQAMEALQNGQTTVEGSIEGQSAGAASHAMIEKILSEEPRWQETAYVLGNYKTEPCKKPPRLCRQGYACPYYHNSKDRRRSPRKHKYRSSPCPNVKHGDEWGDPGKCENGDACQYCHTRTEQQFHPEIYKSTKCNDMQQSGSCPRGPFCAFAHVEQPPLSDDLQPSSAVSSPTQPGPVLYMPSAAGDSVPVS
Method: RNA Bind-n-Seq
Molecule type: RNA
Sample: in vitro
Concentration: not given
Setting: RNA with constant flanks, ends assumed
Reference: input RNA pool
Direction: higher = stronger binding
All sequences stand within: GGGAGUUCUACAGUCCGACGAUC … CAACAGAGGAUUGAGCAUCA
Strand	bound/input enrichment [ratio]
CUGUUUUGUGAAACAUGUCUACCCAGAAAAGUAGCAUUCUAUAAAUACUAUUAAACAACUCCGCUAUAUUAUUUUUAAGUAUUAAAUUAUAUGUCAAGCAGUUAAAGUGAAUUUCAGAGU	2.48
CACGUACAGCCCUGAAUGCAGGUGCAGUUUGGGUUUUUUGUUUUGUUUUGUUUUGUUUUAUCCGCCAGUGGGCAAAGUGAAAUGUAAUUUUGGGUAAGCCAGGGCUACUUUAGCUUUUCU	0.495
CAGAAACUGGAAGAGAUGGUUACCCGUUUAGAUCAAGAAGUAGCCGAGGUUGAUAAAAACACCGAACUUUUGAAAAAGAAGGAUGAAGAACUCAGUUCUGCUCUGGAAAAAAUGGAAAAU	0.365
GGCUCUACAGCGAUUAAGAAGAAACAACAAGAUGUGCUUGGUUUCCUAGAAGCCAACAAAACCGGAUUUGAAGAAAAAGAUAUUGCAGCCAAUGAAGAGAAUCGGAAGUGGAUGAGAGAA	0.324
CAGUCCAUACAGACUUGGGGGUGGUUUGGGGUAUUGCUGUGUGUUCUUUAUGCUUAUGUUCUCCGAGUAUGGUCAGAUGGGACAAGACCCCCUCCUGUCUUCUACAUGACAUGGAGAAAG	0.31
AGCUGUGCCUGCUAAAAUGGAUCAGUGAGAGAGGUUCCUGGACCUGUGAACUUUGCUGUUACCGAUACCAUGUUAUAGCCAUUAAAAUGAAACAACCUUGCCAGGUCUCAUUGUUCAUGA	0.332
CCUCUGUUUAGAAGUGUAGGCAAUACUAUUGAUCCUGUCAUUCUUUUCCAAAAAAUGGGAGCCGGUAAACUUGAGAUGUAUGUGCUUAAUCCAGUCAAGAGCAGCAAGGAAAUGCAGUAU	0.542

Study 3
Target: Interferon regulatory factor 3, full length, phosphomimetic (IRF3, Homo sapiens, UniProt Q14653, residues 1-427, S386D/S396D/S398D/S402D/T404D/S405D)
Method: protein-binding microarray
Molecule type: double-stranded DNA, one strand shown
Sample: in vitro
Concentration: 2540 nM top
Setting: 60-bp whole probe
Added: salmon DNA 0.4 mg/ml
Reference: random background probes
Direction: higher = stronger binding
All sequences stand within: GCCTAGCAC … GTCTTGATTCGCTTGACGCTGCTG
Residues (chain): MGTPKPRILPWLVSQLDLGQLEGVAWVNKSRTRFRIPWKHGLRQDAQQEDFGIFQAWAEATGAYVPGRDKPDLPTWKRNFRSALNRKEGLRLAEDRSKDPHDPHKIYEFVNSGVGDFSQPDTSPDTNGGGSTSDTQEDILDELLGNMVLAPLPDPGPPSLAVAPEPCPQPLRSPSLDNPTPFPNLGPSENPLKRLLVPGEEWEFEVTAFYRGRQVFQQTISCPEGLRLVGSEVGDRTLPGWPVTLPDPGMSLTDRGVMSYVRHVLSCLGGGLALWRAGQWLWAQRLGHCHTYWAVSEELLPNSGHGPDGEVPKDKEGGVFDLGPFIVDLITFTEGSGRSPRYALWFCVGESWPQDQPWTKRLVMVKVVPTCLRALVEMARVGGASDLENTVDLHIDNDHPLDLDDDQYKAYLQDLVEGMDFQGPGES
Strand	fitted relative affinity [z-score]
GACGGACTGGGTTTGGGGACGTGCTAG	-0.573
GAAGATATCGGGTTTCGAGACGTGCTA	1.06
GATGGACTGCTTTTCCTGACGTGCTAG	-0.341
TCAATTCTCTGCTTGCGACTGTGCTAG	0.454
TTTCATTTTTTTTCATCATTGTGCTAG	4.48
GGAGTTTTCTCATTCGTCATGTGCTAG	1.26
AGATTCCTCTCACCTCGGCCTGTGCTA	1.65
TTAGATCTCAGACAGGATTAGTGCTAG	-0.14
TTAGGTTCCGGTTTCGGTGAGTGCTAG	6.91
TTAGGTTTCGGGTATCGGTGAGTGCTA	4.28
GACGGTCTCGGTCTAGGGACGTGCTAG	0.746
GACGGTTTCCTTATCCTGAAGTGCTAG	7.9
TTATGACTGGACTATCGGTTAGTGCTA	-0.188
GACGGACTGGGTATCGAGACGTGCTAG	-0.486
TCATTTTTCTAATTTACACTGTGCTAG	2.2
TCAAGCTTCCATTTTCTACTGTGCTAG	1.59
ACTAGTTTCTTTTCTTTTCTGTGCTAG	7.32
TCATGTAACTCCTATCCAACTGTGCTA	0.293

Study 4
Target: Prothrombin, mature alpha-thrombin (F2, Homo sapiens, UniProt P00734)
Method: aptamer microarray, sandwich
Molecule type: DNA with 2'F-ANA
Sample: in vitro
Concentration: 200 nM
Setting: whole 15-mer aptamer, many near background
Added: Cy3 exosite-II aptamer, 400 nM
Direction: higher = stronger binding
Strand: GGTTGGTGTGGTTGG
Modification	mean fluorescence intensity
2'F-ANA at 2 3 4 6	638 a.u.
2'F-ANA at 1 2 4 5 6 7 9 10 11	76.5 a.u.
2'F-ANA at 1 2 3 5 7 8 14 15	47.5 a.u.
2'F-ANA at 1 3 4 5 6 9 10 11 13	53.4 a.u.
2'F-ANA at 3 4 7 9 10 14	200 a.u.
2'F-ANA at 1 5 9 10 12 13 14	47.6 a.u.
2'F-ANA at 1 2 3 4 7 8 9 14	63.4 a.u.
2'F-ANA at 2 5 6 7 9 11 12 15	128 a.u.
2'F-ANA at 2 4 5 8 9 10 13 14	47.4 a.u.
2'F-ANA at 4 9 10 14	73.7 a.u.
2'F-ANA at 1 2 3 5 6 7 9 11 15	50.9 a.u.
2'F-ANA at 1 2 5 6 8 10 11 12 13 14 15	54.4 a.u.
2'F-ANA at 1 4 8 10 13 14	44.8 a.u.
2'F-ANA at 2 3 7 9 12 13	957 a.u.
2'F-ANA at 1 2 4 7 12 13 14	70.9 a.u.
2'F-ANA at 2 4 8 10 11 12 13 14 15	57 a.u.

Study 5
Target: Histone acetyltransferase KAT6A, winged helix 1, GST fusion (KAT6A, Homo sapiens, UniProt Q92794, residues 1-85)
Method: protein binding microarray
Molecule type: double-stranded DNA, one strand shown
Sample: in vitro
Concentration: not given
Setting: 8-mer, flanks averaged, mean of 2 arrays, mostly near background
Reference: not given
Direction: higher = stronger binding
Target sequence (chain): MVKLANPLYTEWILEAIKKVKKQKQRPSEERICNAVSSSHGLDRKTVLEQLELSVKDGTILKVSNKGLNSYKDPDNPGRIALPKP
Strand	E-score
GGGGGCAC	-0.0997
CTAAGAGA	-0.177
CGCGTCCA	0.305
CGAATAAG	-0.125
GCGTAAGC	0.302
AAGGCTAA	-0.0801
AACTGTAT	-0.0752
GGAGGACC	0.0643
CCTAGAAC	-0.0867
CATAGTGC	0.042
ACACAGTG	-0.168
AAAGAGCA	-0.0445
CTGACACC	-0.033
GACCCTCC	0.00957
ACATGGTG	-0.114
CCTTTAAG	-0.0925
ATGGAAGG	-0.0987
CCGACTGC	0.199
CCGCCCCA	0.096
AGGCACGA	-0.16
AAGGCCTG	-0.0514
TAATTTAA	-0.0837
ACTGATCT	-0.194
GTTTATCA	0.0297
CAATGACA	-0.252

Study 6
Target: Centromere-binding protein 1, full length, His-tagged (CBF1, Saccharomyces cerevisiae, UniProt P17106, residues 1-351)
UniProt P17106, sequence (whole entry, looked up): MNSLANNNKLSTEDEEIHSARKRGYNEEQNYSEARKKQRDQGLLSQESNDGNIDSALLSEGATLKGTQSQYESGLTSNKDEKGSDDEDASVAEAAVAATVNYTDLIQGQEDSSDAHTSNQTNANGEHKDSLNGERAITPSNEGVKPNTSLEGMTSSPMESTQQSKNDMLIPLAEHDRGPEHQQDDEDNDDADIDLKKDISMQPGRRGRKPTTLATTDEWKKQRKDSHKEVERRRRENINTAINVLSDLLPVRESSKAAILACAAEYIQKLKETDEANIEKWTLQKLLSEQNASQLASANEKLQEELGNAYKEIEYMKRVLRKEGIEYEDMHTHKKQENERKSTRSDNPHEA
Method: competition protein-binding microarray
Molecule type: double-stranded DNA, one strand shown
Sample: in vitro
Concentration: 2 µM
Setting: whole 60-bp probe, lowest competitor level
Added: Pho4 competitor, 0.05 µM
Direction: higher = stronger binding
All sequences stand within: … GTCTTGATTCGCTTGACGCTGCTG
Strand	fluorescence intensity [a.u.]
AAAGCGGTAATTTGTTGAGTGGGTGCAGATATCTAT	80.7
CGGGGTTAAGTTTGTCTTGTGGGTGGCTTGCAGCAG	82.1
TATCAAATTTGCGGCCACGCAAGTAACTACGTAGGT	77
AAACCTCTCTGCTTCTACCAAAGTCCTAAAATCTCC	65
GAGTCGTCATCCAACCTCGTGATGGAGGTTTTCAGT	306
GCTGCTCTGTACTGTCACATGATTCTTTCCCAACTC	1100
AAGTTATTGGTGTTCGTCGTGCCGATTGGAGAATTG	80.9
TCAATAAATAATGCTCGCGTGGCCGAATGGCAACGC	101
TTAATGCAAAGTGGACACGTTCAGTTACTATTTCCT	88.1
TTGTTTCCTGGGAACTACGTGCAAATCAACAAGAAA	78.1
AGAGAATCGGGCATATTCGTGCGGATTCCTTGTCCG	61.3
GGAAAGGCTCTTCAACACGTGGCAACATAGGTTAAT	1050
AACGACACCGGCACCTTCGTGACGGCCAACTAATGG	65
CTACATCGAGGTAAACGCGTGTCGGGGTGCAAGCAT	93.1
CAACCAACTGACGAAACCGTGATGGTCATTAGAACT	70.6
CATTCGTTGGTTTATTATGTGACGGTTTTTAGACTT	92.9
